# Experimental data pooled from the literature.
# Numbered parts are unrelated; each lists some results of a single study. Positions count from the first letter of the parent shown.

# Series 1
# Target: CEBPE, bZIP domain (human)
# Method: DHFR protein complementation
# Sample: yeast
# Notes: single substitutions, most at no-binding floor
# Relative to: wild-type JUN-FOS pair
# Reading: higher = stronger binding
# Parent: JUN, bZIP domain (human); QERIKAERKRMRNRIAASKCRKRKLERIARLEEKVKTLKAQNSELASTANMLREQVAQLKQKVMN; partner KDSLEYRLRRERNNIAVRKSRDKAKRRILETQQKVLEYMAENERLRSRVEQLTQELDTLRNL
Variant,binding fitness
K36N,-1.18 natural log
R30P,-1.37 natural log
V56L,-1.23 natural log
Q55L,-1.3 natural log
L38S,-1.49 natural log
L38V,-1.44 natural log
A40G,-1.39 natural log
T37Y,-1.12 natural log
L45K,-1.48 natural log
A57P,-1.53 natural log
N42Q,-1.33 natural log
R30I,-1.25 natural log
K39Q,-1.1 natural log
N42R,-1.38 natural log

# Series 2
# Target: CCNA1, cyclin fold, Cln2 fusion (human)
# Method: yeast growth competition, sequencing
# Sample: yeast
# Notes: weak parent motif
# Relative to: not given
# Reading: higher = stronger binding
# Parent: KIF20B docking peptide (human); KRAKRKLYTSEIS
Variant,normalised enrichment score
S13A,0.306
R2A,0.199
K4A,0.583
L7A,0.49
K1A,0.432
E11A,0.735

# Series 3
# Target: Sal-like protein 4, full length isoform B (SALL4, Homo sapiens, UniProt Q9UJQ4-2, residues 1-616)
# Method: universal PBM
# Form: double-stranded DNA, one strand shown
# Sample: in vitro
# Tested at: not given
# Notes: 8-mer, flanks averaged, mean of replicates
# Reading: higher = stronger binding
Sequence,E-score
GACACATC,-0.0608
GCTGGGGA,-0.221
ATCGGAGC,-0.254
ACATGATA,0.298
ACTTTGAG,0.0554
TAAGCTAA,0.205
AGCAATAA,0.271
CATGAGAC,0.0462
CGAGTGCG,-0.195
GGTAAACA,0.23
AAGACCAT,0.108
CACCCGTC,-0.303
GAGCCCTA,-0.12
AGTTCCTG,-0.173
GGTGCCGA,-0.291
GGCGCTAC,-0.277
CAACCCAC,-0.0979
ACACCGGC,-0.223
GCACAGCA,-0.145
AAGTAGCC,-0.225
CACACGTG,-0.148
ACGGGAGT,0.0318
CCCGTCAC,-0.222
AACATTTG,0.144
ATAAGCAC,0.115

# Series 4
# Target: ABI1, truncated, D143A, DHFR fusion (Arabidopsis thaliana)
# Method: DHFR PCA, deep sequencing
# Sample: yeast
# Notes: methotrexate growth selection, single substitutions
# With: (+)-ABA 0.39 µM
# Relative to: wild-type fitted maximum
# Reading: higher = stronger binding
# Parent: PYL1, truncated, DHFR fusion (Arabidopsis thaliana); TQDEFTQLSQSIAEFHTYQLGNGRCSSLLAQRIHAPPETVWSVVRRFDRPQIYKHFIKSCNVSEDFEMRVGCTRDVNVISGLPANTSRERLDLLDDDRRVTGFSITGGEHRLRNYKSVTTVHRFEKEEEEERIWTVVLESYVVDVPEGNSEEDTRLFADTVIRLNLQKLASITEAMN; partner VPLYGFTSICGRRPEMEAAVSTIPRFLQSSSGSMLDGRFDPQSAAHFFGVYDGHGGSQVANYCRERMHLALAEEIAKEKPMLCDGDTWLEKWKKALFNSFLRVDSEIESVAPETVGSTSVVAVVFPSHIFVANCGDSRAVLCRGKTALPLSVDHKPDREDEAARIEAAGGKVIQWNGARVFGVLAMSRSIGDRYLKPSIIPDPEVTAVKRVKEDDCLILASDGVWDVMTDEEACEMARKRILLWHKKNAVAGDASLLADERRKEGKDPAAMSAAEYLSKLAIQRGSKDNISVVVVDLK
Variant,relative binding score [%]
L94I,13.6
H110Y,11
N85H,62.6
N61T,67.5
L82N,10.2
V78D,-3.4
L8R,0.0479
G107A,27.4
T106W,-5.4
T86Y,56.3
H16K,-2.73
R32S,21.2
V100S,-2.39
E64A,46
V62P,-13.2
S26T,45
S59F,6.8
Y18C,0.845
F47T,-15.5

# Series 5
# Target: Fragile X messenger ribonucleoprotein 1, C-terminal low-complexity region (Fmr1, Mus musculus, UniProt P35922)
# Method: RNA Bind-n-Seq
# Form: RNA
# Sample: in vitro
# Tested at: 200 nM
# Notes: whole 134-nt RNA, ends assumed
# With: 150 mM LiCl
# Relative to: input library
# Reading: higher = stronger binding
# Each molecule: 7-deaza-guanosine replaces G
Sequence,log2 enrichment
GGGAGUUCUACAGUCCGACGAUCUGCUUGUUCUGGAGUGAUCUUCUGACUGGAAAAGAACUAUGUCAUGGAUCAAGGAAGGAGAGCUGUCACUUUGGGAGCGGUUCUGUGCCAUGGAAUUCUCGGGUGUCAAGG,1.08
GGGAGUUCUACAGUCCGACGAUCCACAGACAACACGCACCCACACAGACACAGAGGGAAGGGAAAGGGAUGGGGACAGGGUGCACAGCAGGGCGGGGUAGGACCCCAGCCCCUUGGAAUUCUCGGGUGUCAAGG,-0.274
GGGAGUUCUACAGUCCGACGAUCUAACUUUAGAGGUGGAUCUGAUGGAUAUGGCAGUGGACGUGGAUUUGGGGAUGGCUAUAAUGGGUAUGGAGGAGGACCUGGAGGUGGCAAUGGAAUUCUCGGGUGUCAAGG,0.463
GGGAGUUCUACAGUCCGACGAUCCUGUGCUACACAUCGUAUGUACCGAAUCGUGUGUGUGUGUGUGUGUGUGUGUGUGUGUGUGUAAAGUAUUAUGUUACGCCGUUCGGAUCUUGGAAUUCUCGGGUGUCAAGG,-0.156
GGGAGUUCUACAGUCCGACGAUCUUAGGAAGAGAAGACAAGGUGGCCUCUCAUUAGAAGAAGAGGAAGAGGAGGAUGCCAAUUCAGAAUCUGAGGGAAGCAGUAGUGAGGAGGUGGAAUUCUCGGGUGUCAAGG,-1.48
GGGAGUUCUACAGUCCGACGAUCUAGUCCAGCAUCAAGAUUCGCCGGCCUGGAUACAAAUCAGCGACUUACAGCUUUAGCUGAAGACAGACCGUUAUUUGAUGGACCUAGUAGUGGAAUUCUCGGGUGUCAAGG,-2.95
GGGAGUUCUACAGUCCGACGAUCCUCAAGUCCUGUGCUACACAUCGUAUGUACCGAAUCGGUUUGGUUUGGAAAGGAAAGUAUUAUGUUACGCCGUUCGGAUCUGCACUUCCAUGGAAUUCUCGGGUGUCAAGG,0.0823
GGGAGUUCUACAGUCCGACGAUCAAGUCCUGUGCUACACAUCGUAUGUACCGAAUCGGAAAAGGGGAAAAGGAAAAGGGGAAAGUAUUAUGUUACGCCGUUCGGAUCUGCACUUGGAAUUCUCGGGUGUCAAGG,0.341

# Series 6
# Target: Histone acetyltransferase KAT6A, both winged helices, GST fusion (KAT6A, Homo sapiens, UniProt Q92794, residues 1-181)
# Method: protein binding microarray
# Form: double-stranded DNA, one strand shown
# Sample: in vitro
# Tested at: not given
# Notes: 8-mer, flanks averaged, mean of 2 arrays, mostly near background
# Relative to: not given
# Reading: higher = stronger binding
# Construct (chain): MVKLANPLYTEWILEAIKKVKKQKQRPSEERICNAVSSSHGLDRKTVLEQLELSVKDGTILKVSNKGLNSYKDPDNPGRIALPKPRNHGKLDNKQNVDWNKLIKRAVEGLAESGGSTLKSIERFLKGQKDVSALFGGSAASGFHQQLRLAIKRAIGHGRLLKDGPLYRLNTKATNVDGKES
Sequence,E-score
CCTGCTAC,0.00772
ACCTCGCA,-0.0384
GGAGAACA,-0.0109
GATGTGTA,-0.0681
ATGAAAAA,-0.0157
AGTTCGCG,0.255
AACCAGTT,-0.0357
TCGACGAA,0.0477
TGACAGCA,-0.038
GCAAAGCA,-0.0512
AGGGCCCT,-0.162
CCGGCCGG,0.373
TACAACAA,-0.122
CAGCACTA,0.0196
AATTTTTG,-0.191
GTTCAAAA,-0.0392
GAGGATAA,-0.218
CGCTAAAC,0.229
AATGTTTG,-0.0537
GCGCACCA,0.175

# Repeated from above (series 6):
Sequence,E-score
AACCAGTT,-0.0357
TCGACGAA,0.0477
TGACAGCA,-0.038
GCAAAGCA,-0.0512
AGGGCCCT,-0.162
CCGGCCGG,0.373
TACAACAA,-0.122
CAGCACTA,0.0196
AATTTTTG,-0.191
